Published values pooled from the literature.
± gives the spread as reported.
Cell line: MDA-MB-231

SMILES | assay | conditions | how to read | measurement | value
C#C[C@@]1(O)[C@@H](CO)O[C@@H](n2cc(I)c3c(N)ncnc32)[C@@H]1O | cell growth, SRB | – | – | TGI | > 100 µM
CCCN1CCN(c2ccc3[nH]c(-c4ccc5[nH]c(-c6cc(OC)c(OC)c(OC)c6)nc5c4)nc3c2)CC1 | SRB | 10 µM, 48 h | – | growth percent | 98.4%
CCCNC(=O)[C@H]1O[C@@H]1C(=O)N[C@H](C(=O)N1CCC[C@H]1C(=O)OC)[C@@H](C)CC | MTT | 50 µM, 4 h, light and dark | – | cytotoxicity | not toxic
CCn1c2ccccc2c2cc(-n3nncc3-c3ccccc3)ccc21 | – | concentration not given, 24 h | – | detached cells | 20 to 42%
Cc1nc(Nc2ncc(C(=O)Nc3c(C)cccc3Cl)s2)cc(N2CCN(CCO)CC2)n1 | – | 3D cell culture | – | GI50 | 0.012 ± 0.004 µM
CCCCCC(=O)Oc1c(C)c(O)c(C(=O)/C=C/c2ccccc2)c(OC)c1C | – | – | relative to: CL over MDA-MB-231 | selectivity index | 1.3
CCCCN1CCN(c2ccc3[nH]c(-c4ccc5[nH]c(-c6cc(OC)c(OC)c(OC)c6)nc5c4)nc3c2)CC1 | SRB | 10 µM, 48 h | – | growth percent | 78.9%
COC(=O)CNC(=O)C(=O)OC | immunoblot | concentration not given, 12 h | – | H3K4me3 level | increased
Cc1ccc(CNC(=O)Cn2cc(CSc3nc4ccccc4[nH]3)nn2)cc1 | MTT | 500 ppm | – | viability | 6.32%
CCCC(CCC)C(=O)OCc1cn(-c2c3ccccc3nc3ccccc23)nn1 | NCI60 single dose screen | 10 µM | – | growth percentage | 89.7%
CO[C@H]1[C@H](O[C@H]([C@H]2O[C@@H](n3ccc(=O)[nH]c3=O)[C@H](O)[C@@H]2O)[C@H](NCCCNC(=O)[C@@H](NC(=O)[C@@H](NC(=O)N[C@H](C(=O)O)C(C)C)[C@@H]2CCN=C(N)N2)[C@@H](OC(=O)CCCCCCCCCCCCN(O)C(=N)N)C(C)C)C(=O)O)O[C@H](CN)[C@H]1O | apoptosis, staining, annexin V, 7-AAD | – | – | lowest effective concentration | 0.25 µM
C=C1CN(S(=O)(=O)c2ccc(C)cc2)CCCN(CC2CCCCC2)CCCN(S(=O)(=O)c2ccc(OCCO)cc2)C1.Cl | – | 4 µM, 48 h, together with: progranulin 1 µg/mL | – | mammosphere formation | decreased
Cc1[nH]c2ccccc2c1C1=C(Cl)C(=O)C(Cl)=C(N2CCOCC2)C1=O | apoptosis antibody array, refers to: HTRA2/Omi, p53, catalase, procaspase-3 | 100 nM, 48 h | relative to: vehicle | protein level | increased
C[C@@H]1CC[C@@H]([C@](O)(CNCc2ccc(F)cc2)COCc2ccc(F)cc2)[C@H](OCc2ccc(F)cc2)C1 | cell growth, inhibitor, MTT | 72 h | – | IC50 | 1.79 µM
CC(C)(C)OC(=O)N1CCC(Oc2ccc(Cl)cc2C(=O)N[C@@H](Cc2ccccc2)C(=O)Nc2cc(C(F)(F)F)cc(C(F)(F)F)c2)CC1 | – | up to 10 µM, 72 h | – | antiproliferative activity | inactive
CCn1cc(-c2cc(Cn3ccoc3=N)cc3c2CCN([C@@H](C)c2cc(OC)ccn2)C3=O)c(C(F)(F)F)n1 | cell growth, inhibitor | 120 h | – | EC50 | 0.0636 µM
CCCCN1CCN(c2ccc3nc(-c4ccc5nc(-c6cc(OC)ccc6OC)[nH]c5c4)[nH]c3c2)CC1 | SRB | 10 µM, 48 h | – | growth percent | 110%
CC(=NNC(=O)COc1ccc2c(C)c(Cc3ccccc3)c(=O)oc2c1C)c1ccc(Br)cc1 | cell viability, MTT | – | – | IC50 | 47.2 µM
COc1cccc2c1C(=O)c1c(O)c3c(c(O)c1C2=O)C[C@@](O)(C(=O)CO)C[C@@H]3O[C@H]1C[C@H](N)[C@H](O)[C@H](C)O1 | H2DCFDA flow cytometry | concentration not given, 48 h | – | ROS level | 70.7%

SMILES | assay | conditions | how to read | measurement | value
COc1c(C)c(OCc2ccccc2)c(C)c(O)c1C(=O)/C=C/c1ccccc1 | – | – | relative to: CL over MDA-MB-231 | selectivity index | 0.84
Cc1cc(NS(=O)(=O)c2ccc(NC(=O)/C(C#N)=C/c3ccncc3)cc2)no1 | cytotoxicity, MTT | – | relative to: HSF over MDA-MB-231 IC50 | selectivity index | > 1.72
CCCOc1ccc2c(C)c(CC)c(=O)oc2c1C | MTT | – | – | IC50 | 211 µg/mL
CC(C)[C@H](NC(=O)c1cc(Cl)ccc1OCCNC(=O)OC(C)(C)C)C(=O)Nc1ccc([N+](=O)[O-])cc1Cl | Western blot | 1, 5, 10 µM, 48 h | – | cleaved caspase-3 level | increased
COc1ccc(OC)c(-c2nc3ccc(-c4nc5ccc(N6CCN(C)CC6)cc5[nH]4)cc3[nH]2)c1 | SRB | 10 µM, 48 h | – | growth percent | 122%
O=c1ccn(Cc2cn(-c3c4ccccc4nc4ccccc34)nn2)c(=O)[nH]1 | NCI60 single dose screen | 10 µM | – | growth percentage | 89.4%
O=P(O)(O)C(O)(Cn1ccnc1)P(=O)(O)O | AlamarBlue | 1.9 µM, 24 h | relative to: control | viability | 98 ± 2%
OCc1ccc(Nc2ccc3c(Nc4cccc(C(F)(F)F)c4)ncnc3c2)cc1 | annexin V-PE/DAPI | concentration not given, 24 h | – | early apoptotic cells | 10.1%
Nc1ccccc1NC(=O)c1ccc(CNc2ccc(NC3=C(Cl)C(=O)c4cccnc4C3=O)cc2)cc1 | annexin V/PI staining, refers to: annexin V-/PI- | 8 µM, 72 h | – | viable cells | 52.7%
O=C(NCc1ccc(CNS(=O)(=O)c2ccc3c(c2)CCO3)cc1)c1scc2c1OCCO2 | Matrigel invasion | 0.1 µM, 22 h, together with: CXCL12α 200 ng/mL | – | inhibition | > 60%
Cc1c(Cc2ccccc2)c(=O)oc2c(C)c(OCC(=O)NN=Cc3ccc(Cl)cc3)ccc12 | MTT | – | – | IC50 | 37.3 µg/mL
O=C(/C=C/C=C/C=C/C1CCCCC1)NC1=C[C@@](O)(/C=C/C=C/C=C/C(=O)NC2=C(O)CCC2=O)[C@@H]2O[C@@H]2C1=O | cell growth, CellTiter-Glo | 78 h | – | GI50 | 15 µM
O=C1NC(c2ccccc2)(c2ccccc2)C(=O)N1Cc1cn(-c2c3ccccc3nc3ccccc23)nn1 | NCI60 single dose screen | 10 µM | – | growth percentage | 73.1%
CCCCCCCCCC(=O)Oc1c(C)c(O)c(C(=O)/C=C/c2ccccc2)c(OC)c1C | – | – | relative to: CL over MDA-MB-231 | selectivity index | 1.14
CN1C(=O)C(=O)c2cc3c(c4c2c1cc1ccccc14)OCO3 | cytotoxicity, MTT | 50 µg/mL, 48 h | – | inhibition | < 50%
O=c1[nH]cc(F)c(=O)[nH]1 | cytotoxicity, MTT | – | relative to: HSF over MDA-MB-231 IC50 | selectivity index | 6.3
CC(C)(C)OCC(NC(=O)c1cc(Cl)ccc1OCCNC(=O)OC(C)(C)C)C(=O)Nc1ccc([N+](=O)[O-])cc1Cl (stereo in doubt) | – | up to 10 µM, 72 h | – | antiproliferative activity | inactive
CCN(CC)c1ccc(C=NNC(=O)CSc2nc3ccccc3c(=O)n2Cc2ccc(S(N)(=O)=O)cc2)c(O)c1 | NCI five-dose screen | – | – | TGI | > 100 µM

Some of these lines once more:
SMILES | assay | conditions | how to read | measurement | value
COc1ccc(OC)c(-c2nc3ccc(-c4nc5ccc(N6CCN(C)CC6)cc5[nH]4)cc3[nH]2)c1 | SRB | 10 µM, 48 h | – | growth percent | 122%
O=c1ccn(Cc2cn(-c3c4ccccc4nc4ccccc34)nn2)c(=O)[nH]1 | NCI60 single dose screen | 10 µM | – | growth percentage | 89.4%
O=P(O)(O)C(O)(Cn1ccnc1)P(=O)(O)O | AlamarBlue | 1.9 µM, 24 h | relative to: control | viability | 98 ± 2%
OCc1ccc(Nc2ccc3c(Nc4cccc(C(F)(F)F)c4)ncnc3c2)cc1 | annexin V-PE/DAPI | concentration not given, 24 h | – | early apoptotic cells | 10.1%
Nc1ccccc1NC(=O)c1ccc(CNc2ccc(NC3=C(Cl)C(=O)c4cccnc4C3=O)cc2)cc1 | annexin V/PI staining, refers to: annexin V-/PI- | 8 µM, 72 h | – | viable cells | 52.7%
